Results gathered from unrelated publications.
Lines come from different studies, so protocols differ. ± marks the error that the study gave.

Structure (SMILES) = C[C@@H](O)[C@H](NC(=O)[C@@H]1CSSC[C@H](NC(=O)[C@@H](Cc2ccccc2)NC(=O)CN2CCCN3CCN(CCCN(CC(=O)O)CC3)CC2)C(=O)N[C@@H](Cc2ccc(O)cc2)C(=O)N[C@H](Cc2c[nH]c3ccccc23)C(=O)N[C@@H](CCCCN)C(=O)N[C@@H]([C@@H](C)O)C(=O)N1)C(=O)O [copper-64 labelled]; test system = MCF7 xenograft, mouse; conditions = 4 h, SSTR2-yCD expressing tumour, added: Y3-TATE 200 µg blocking; how to read = relative to: saline; quantity = SUV; value = no effect
Structure (SMILES) = N=C(N)NCCC[C@@H]1NC(=O)[C@H](CCCCNC(=O)CC[C@H](NC(=O)CC[C@H](NC(=O)CN2CCN(CC(=O)O)CCN(CC(=O)O)CCN(CC(=O)O)CC2)C(=O)N[C@@H](CCC(=O)NCCCC[C@@H]2NC(=O)[C@@H](Cc3ccccc3)NC(=O)[C@H](CC(=O)O)NC(=O)CNC(=O)[C@H](CCCNC(=N)N)NC2=O)C(=O)NCCCC[C@@H]2NC(=O)[C@@H](Cc3ccccc3)NC(=O)[C@H](CC(=O)O)NC(=O)CNC(=O)[C@H](CCCNC(=N)N)NC2=O)C(=O)NCCCC[C@@H]2NC(=O)[C@@H](Cc3ccccc3)NC(=O)[C@H](CC(=O)O)NC(=O)CNC(=O)[C@H](CCCNC(=N)N)NC2=O)NC(=O)[C@@H](Cc2ccccc2)NC(=O)[C@H](CC(=O)O)NC(=O)CNC1=O [indium-111 labelled]; test system = female athymic nu/nu mice, muscle; conditions = intravenous, 111 kBq, 1 h; quantity = tissue uptake; value = 1.22 ± 0.45 %ID/g
Structure (SMILES) = CCCC[C@H](NC(=O)COCCOCCNC(=O)CN1CCN(CC(=O)O)CCN(CC(=O)O)CC1)C(=O)N[C@H]1CC(=O)NCCCC[C@@H](C(N)=O)NC(=O)[C@H](Cc2c[nH]c3ccccc23)NC(=O)[C@H](CCCNC(=N)N)NC(=O)[C@@H](Cc2ccccc2)NC(=O)[C@H](Cc2c[nH]cn2)NC1=O [copper-64 labelled]; test system = C57 mice, bone; conditions = intravenous, 0.37 MBq, 24 h; quantity = tissue uptake; value = 0.01 ± 0.01 %ID/g
Structure (SMILES) = N=C(N)NCCC[C@@H]1NC(=O)[C@H](CCCCNC(=O)CNC(=O)CNC(=O)CNC(=O)CC[C@H](NC(=O)CNC(=O)CNC(=O)CNC(=O)CC[C@H](NC(=O)CN2CCN(CC(=O)O)CCN(CC(=O)O)CCN(CC(=O)O)CC2)C(=O)NCC(=O)NCC(=O)NCC(=O)N[C@@H](CCC(=O)NCC(=O)NCC(=O)NCC(=O)NCCCC[C@@H]2NC(=O)[C@@H](Cc3ccccc3)NC(=O)[C@H](CC(=O)O)NC(=O)CNC(=O)[C@H](CCCNC(=N)N)NC2=O)C(=O)NCC(=O)NCC(=O)NCC(=O)NCCCC[C@@H]2NC(=O)[C@@H](Cc3ccccc3)NC(=O)[C@H](CC(=O)O)NC(=O)CNC(=O)[C@H](CCCNC(=N)N)NC2=O)C(=O)NCC(=O)NCC(=O)NCC(=O)NCCCC[C@@H]2NC(=O)[C@@H](Cc3ccccc3)NC(=O)[C@H](CC(=O)O)NC(=O)CNC(=O)[C@H](CCCNC(=N)N)NC2=O)NC(=O)[C@@H](Cc2ccccc2)NC(=O)[C@H](CC(=O)O)NC(=O)CNC1=O [indium-111 labelled]; test system = female athymic nu/nu mice, brain; conditions = intravenous, 24 h; quantity = tissue uptake; value = 0.12 ± 0.07 %ID/g
Structure (SMILES) = CCCC[C@H](NC(=O)CCCCCCCNC(=O)CN1CCN(CC(=O)O)CCN(CC(=O)O)CC1)C(=O)N[C@H]1CC(=O)NCCCC[C@@H](C(N)=O)NC(=O)[C@H](Cc2c[nH]c3ccccc23)NC(=O)[C@H](CCCNC(=N)N)NC(=O)[C@@H](Cc2ccccc2)NC(=O)[C@H](Cc2c[nH]cn2)NC1=O [copper-64 labelled]; test system = C57 mice, blood; conditions = intravenous, 0.37 MBq, 4 h; quantity = tissue uptake; value = 0.18 ± 0.07 %ID/g
Structure (SMILES) = Cc1cc(-c2ccc(NC(=O)[C@H](CCCCNC(=O)CCN3C(=O)CC(SCCC(=O)N[C@H](Cc4ccccc4)C(=O)N[C@H]4CSSC[C@@H](C(=O)N[C@H](C(=O)O)[C@@H](C)O)NC(=O)[C@H]([C@@H](C)O)NC(=O)[C@H](CCCCN)NC(=O)[C@@H](Cc5c[nH]c6ccccc56)NC(=O)[C@H](Cc5ccc(O)cc5)NC4=O)C3=O)NC(=O)CN3CCN(CC(=O)O)CCN(CC(=O)O)CCN(CC(=O)O)CC3)c(C)c2)ccc1N=Nc1ccc2c(S(=O)(=O)O)cc(S(=O)(=O)O)c(N)c2c1O (stereo partly shown) [lutetium-177 labelled]; test system = metastatic NET patients, lymph node metastases; quantity = absorbed dose; value = 0.62 ± 0.06 Gy/GBq
Structure (SMILES) = C/C=C(/C)C(=O)O[C@H]1C(C)=C2[C@H]([C@@H]1OC(=O)CCCCCCC)[C@@](C)(OC(C)=O)C[C@H](OC(=O)CCCCCCCCCCCNC(=O)C[C@H](N)C(=O)N[C@@H](CCC(=O)N[C@@H](CCC(=O)N[C@@H](CCC(=O)N[C@@H](CCC(=O)O)C(=O)O)C(=O)O)C(=O)O)C(=O)O)[C@@]1(O)[C@H]2OC(=O)[C@@]1(C)O; test system = human patients, plasma; conditions = intravenous infusion, 1 h infusion; quantity = alpha half-life; value = 2.05 h
Structure (SMILES) = N=C(N)NCCC[C@@H]1NC(=O)[C@H](CCCCNC(=O)CNC(=O)CNC(=O)CNC(=O)CC[C@H](NC(=O)CNC(=O)CNC(=O)CNC(=O)CN2CCN(CC(=O)O)CCN(CC(=O)O)CCN(CC(=O)O)CC2)C(=O)NCC(=O)NCC(=O)NCC(=O)NCCCC[C@@H]2NC(=O)[C@@H](Cc3ccccc3)NC(=O)[C@H](CC(=O)O)NC(=O)CNC(=O)[C@H](CCCNC(=N)N)NC2=O)NC(=O)[C@@H](Cc2ccccc2)NC(=O)[C@H](CC(=O)O)NC(=O)CNC1=O [indium-111 labelled]; test system = female athymic nu/nu mice, heart; conditions = intravenous, 4 h; quantity = tissue uptake; value = 0.44 ± 0.02 %ID/g
Structure (SMILES) = CCCC[C@H](NC(=O)[C@H](CC(N)=O)NC(=O)[C@H](CCCNC(=N)N)NC(=O)[C@@H](NC(=O)CNC(=O)[C@H](C)NC(=O)[C@H](CCCCNC(=O)CCC(=O)O[C@@H](C(=O)O[C@H]1C[C@@]2(O)[C@@H](OC(=O)c3ccccc3)[C@@H]3[C@]4(OC(C)=O)CO[C@@H]4C[C@H](O)[C@@]3(C)C(=O)[C@H](O)C(=C1C)C2(C)C)[C@@H](NC(=O)OC(C)(C)C)c1ccccc1)NC(=O)[C@H](C)NC(=O)[C@H](CCCNC(=N)N)NC(=O)[C@@H](NC(=O)CNC(C)=O)C(C)C)C(C)C)C(=O)N[C@@H](Cc1ccccc1)C(=O)N[C@@H](CCCCNC(=O)CCC(=O)O[C@@H](C(=O)O[C@H]1C[C@@]2(O)[C@@H](OC(=O)c3ccccc3)[C@@H]3[C@]4(OC(C)=O)CO[C@@H]4C[C@H](O)[C@@]3(C)C(=O)[C@H](O)C(=C1C)C2(C)C)[C@@H](NC(=O)OC(C)(C)C)c1ccccc1)C(=O)N[C@@H](CO)C(=O)N[C@@H](CCC(=O)O)C(=O)N[C@@H](CO)C(=O)N[C@@H](Cc1ccc(O)cc1)C(=O)O; test system = CD-1 mice, plasma; conditions = iv, 50 mg/kg; quantity = distribution half-life; value = 0.46 h
Structure (SMILES) = Cc1cc(-c2ccc(NC(=O)[C@H](CCCCNC(=O)CCOCCOCCC(=O)N[C@H](Cc3ccccc3)C(=O)N[C@H]3CSSC[C@@H](C(=O)N[C@H](C(=O)O)[C@@H](C)O)NC(=O)[C@H]([C@@H](C)O)NC(=O)[C@H](CCCCN)NC(=O)[C@@H](Cc4c[nH]c5ccccc45)NC(=O)[C@H](Cc4ccc(O)cc4)NC3=O)NC(=O)CN3CCN(CC(=O)O)CCN(CC(=O)O)CCN(CC(=O)O)CC3)c(C)c2)ccc1N=Nc1ccc2c(S(=O)(=O)O)cc(S(=O)(=O)O)c(N)c2c1O [lutetium-177 labelled]; test system = patients with metastatic NETs, lymph node metastases; how to read = relative to: cpd over 177Lu-EB-TATE; quantity = absorbed dose ratio; value = 2.7 fold
Structure (SMILES) = CCCC[C@H](NC(=O)CNC(=O)CNC(=O)CN1CCN(CC(=O)O)CCN(CC(=O)O)CC1)C(=O)N[C@H]1CC(=O)NCCCC[C@@H](C(N)=O)NC(=O)[C@H](Cc2c[nH]c3ccccc23)NC(=O)[C@H](CCCNC(=N)N)NC(=O)[C@@H](Cc2ccccc2)NC(=O)[C@H](Cc2c[nH]cn2)NC1=O [technetium-99m labelled]; test system = C57 mouse, liver; conditions = iv, 0.037 MBq, 24 h; quantity = tissue uptake; value = 0.53 ± 0.17 %ID/g
Structure (SMILES) = CCCC[C@H](NC(=O)CNC(=O)CNC(=O)CN1CCN(CC(=O)O)CCN(CC(=O)O)CCN(CC(=O)O)CC1)C(=O)N[C@H]1CC(=O)NCCCC[C@@H](C(N)=O)NC(=O)[C@H](Cc2c[nH]c3ccccc23)NC(=O)[C@H](CCCNC(=N)N)NC(=O)[C@@H](Cc2ccccc2)NC(=O)[C@H](Cc2c[nH]cn2)NC1=O [lutetium-177 labelled]; test system = C57 mouse, female, kidneys; conditions = intravenous, 0.037 MBq, 4 h; quantity = tissue uptake; value = 9.68 ± 1.95 %ID/g
Structure (SMILES) = CC(C)C[C@H](NC(=O)[C@H](Cc1ccc(O)cc1)NC(=O)[C@@H](CCCNC(=N)N)NC(=O)[C@@H](CO)NC(=O)[C@H](Cc1ccccc1)NC(=O)[C@H](CC1CCCCC1)NC(=O)[C@H](CC(=O)O)NC(=O)CN1CCCN2CCN(CCCN(CC(=O)O)CC2)CC1)C(=O)N[C@@H](Cc1c[nH]c2ccccc12)C(=O)N[C@@H](CO)C(=O)O [copper-64 labelled]; test system = female NMRI nude mice, muscle; conditions = 22 h p.i.; quantity = tissue uptake; value = 0.2 ± 0.1 %ID/g

Excerpt of the above:
Structure (SMILES) = C[C@@H](O)[C@H](NC(=O)[C@@H]1CSSC[C@H](NC(=O)[C@@H](Cc2ccccc2)NC(=O)CN2CCCN3CCN(CCCN(CC(=O)O)CC3)CC2)C(=O)N[C@@H](Cc2ccc(O)cc2)C(=O)N[C@H](Cc2c[nH]c3ccccc23)C(=O)N[C@@H](CCCCN)C(=O)N[C@@H]([C@@H](C)O)C(=O)N1)C(=O)O [copper-64 labelled]; test system = MCF7 xenograft, mouse; conditions = 4 h, SSTR2-yCD expressing tumour, added: Y3-TATE 200 µg blocking; how to read = relative to: saline; quantity = SUV; value = no effect
Structure (SMILES) = N=C(N)NCCC[C@@H]1NC(=O)[C@H](CCCCNC(=O)CC[C@H](NC(=O)CC[C@H](NC(=O)CN2CCN(CC(=O)O)CCN(CC(=O)O)CCN(CC(=O)O)CC2)C(=O)N[C@@H](CCC(=O)NCCCC[C@@H]2NC(=O)[C@@H](Cc3ccccc3)NC(=O)[C@H](CC(=O)O)NC(=O)CNC(=O)[C@H](CCCNC(=N)N)NC2=O)C(=O)NCCCC[C@@H]2NC(=O)[C@@H](Cc3ccccc3)NC(=O)[C@H](CC(=O)O)NC(=O)CNC(=O)[C@H](CCCNC(=N)N)NC2=O)C(=O)NCCCC[C@@H]2NC(=O)[C@@H](Cc3ccccc3)NC(=O)[C@H](CC(=O)O)NC(=O)CNC(=O)[C@H](CCCNC(=N)N)NC2=O)NC(=O)[C@@H](Cc2ccccc2)NC(=O)[C@H](CC(=O)O)NC(=O)CNC1=O [indium-111 labelled]; test system = female athymic nu/nu mice, muscle; conditions = intravenous, 111 kBq, 1 h; quantity = tissue uptake; value = 1.22 ± 0.45 %ID/g
